Assay results from different studies.
Each numbered part is a random draw from the data of one study; scales do not carry over between parts. Substitutions count along the parent as printed.

Set 1
Target: RNA binding protein fox-1 homolog 2, RRM domain, GST-SBP tag (RBFOX2, Homo sapiens, UniProt O43251-10, residues 100-194)
Technique: RNA Bind-n-Seq
Form: RNA
Sample: in vitro
Tested at: 365 nM
Setting: natural RNA segment, single round, ends assumed
Relative to: no-protein control
Reading: higher = stronger binding
Target sequence (chain): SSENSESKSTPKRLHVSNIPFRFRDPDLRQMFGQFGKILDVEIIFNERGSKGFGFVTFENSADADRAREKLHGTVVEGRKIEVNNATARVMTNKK
`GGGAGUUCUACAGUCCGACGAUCGCUUGGCCAUUUAUCUAAGGAAGAUGAGCCAAAAUUAUGACAUCUAAAAUAAUCGUCAGUCUUAAGAGUAAAGACAGCGAAACUGCACACUUAUAAGUUCUUUUCAGCUUUGGAAUUCUCGGGUGCCAA`: “RBNS enrichment (R)” 0.301.
`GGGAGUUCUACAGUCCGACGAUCACAACAGCUUUGAUGAGUUCCUAUUAAGGUCGUAUUGUGUAUUGUGCCAAAUUUUCCACCCAGUAUAAAUUUAGUAACCCGCUAUGAGCAUAUGUAGGAUAUUCAAUUUGUGGAAUUCUCGGGUGCCAA` — result for “RBNS enrichment (R)”: 0.398.
For `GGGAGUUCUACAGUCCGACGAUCGUUUCAUAAGCCUGUCUAGGUGUGGCAGGUUUUGUGUGGUACACUGAUGUUUACCAUAAGCAGGUACAAGCUUCAUGAACCGUUCUUAAUGAACUAUAAUUGAAUAGAUAUGGAAUUCUCGGGUGCCAA`, “RBNS enrichment (R)” read 0.434.
Under “RBNS enrichment (R)”, `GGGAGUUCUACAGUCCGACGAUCUACAGUCAUAAAGCCACCUAGAGCGAUUUGUUGUUGAGCAACGCCGCCCCUUCCCUCCAGGAUCAGAAGCAGCACCCACCCUUGCCAUGAUAAACAUUCCAUCCCCUGCUUGGAAUUCUCGGGUGCCAA` is recorded as 0.544.
Under “RBNS enrichment (R)”, `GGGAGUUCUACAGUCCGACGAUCCACACUGUCUCCUGCUGGCAUUCACCCCACUCAUGCUGGAAAGGAAGAUCCAGAUCGUACAAAAAUUAGAAAAAGAAAGAAUAAGAAGGGUCUGGUCCCAGUUCUGACUCUGGAAUUCUCGGGUGCCAA` is recorded as 0.902.
`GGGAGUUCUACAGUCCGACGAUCGGUCUCAUUGAAGACGACACGUACUACCCCAUAAGCUAGUAAGCCAGCAAGAAAGGCCAUGCCACCUGCCCUUGACUACACAGGAACAGUGAACAGCAUUUUCGUUCCUGUGGAAUUCUCGGGUGCCAA` — result for “RBNS enrichment (R)”: 1.5.
`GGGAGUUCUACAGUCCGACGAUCCCAAGUCUCUGCUGGUUACGGAGCUAUACGGUACUGCAGGAGUUCUACAUACCUGCUGCGCAGAGACCAGCCCCGUGGACAGAGCUGGCAUGAUGGUUGCUACAGUGCUCUGGAAUUCUCGGGUGCCAA` — result for “RBNS enrichment (R)”: 4.4.
Under “RBNS enrichment (R)”, `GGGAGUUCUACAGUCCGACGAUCUGGCAGUGAAAAAUAUGUUGAGUGUUCAUUUUAGUGACUGUAAUUAAUAUCUUGCUGGAUUAAUGUUUUGUACAAUUACUAAAUUGUAUACAUUUUGUUAUAGAAUACUUUGGAAUUCUCGGGUGCCAA` is recorded as 0.454.

Set 2
Target: Ras GTPase-activating protein-binding protein 1, full length (G3BP1, Homo sapiens, UniProt Q13283)
UniProt Q13283, sequence (whole entry, looked up): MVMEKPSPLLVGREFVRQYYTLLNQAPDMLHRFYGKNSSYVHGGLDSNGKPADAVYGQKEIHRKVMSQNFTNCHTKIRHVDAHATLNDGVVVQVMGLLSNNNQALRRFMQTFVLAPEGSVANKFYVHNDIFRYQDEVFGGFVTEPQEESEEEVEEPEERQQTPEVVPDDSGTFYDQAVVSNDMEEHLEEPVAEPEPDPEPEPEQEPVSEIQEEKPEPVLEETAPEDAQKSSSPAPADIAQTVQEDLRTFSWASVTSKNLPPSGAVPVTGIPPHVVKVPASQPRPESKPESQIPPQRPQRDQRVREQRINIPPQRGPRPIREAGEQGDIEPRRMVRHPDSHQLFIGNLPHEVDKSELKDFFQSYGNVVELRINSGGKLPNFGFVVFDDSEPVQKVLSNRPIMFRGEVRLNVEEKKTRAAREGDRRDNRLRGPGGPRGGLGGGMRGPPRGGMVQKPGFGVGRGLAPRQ
Technique: RNA Bind-n-Seq
Form: RNA
Sample: in vitro
Tested at: 200 nM
Setting: whole 134-nt RNA, ends assumed
With: 150 mM LiCl
Relative to: input library
Reading: higher = stronger binding
All molecules: 7-deaza-guanosine replaces G
With `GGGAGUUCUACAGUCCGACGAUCUAACUUUAGAGGAGGAUCUGAUGGAUAUGGCAGUGGACGUGGAUUUGGGGAUGGCUAUAAUGGGUAUGGAGGAGGGCCUGGAGGUGGCAAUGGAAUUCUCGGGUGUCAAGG` the log2 enrichment was 0.554.
For `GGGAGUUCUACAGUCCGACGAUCGCAUAAUGGAUAUUUUUUAACUUGGCGAGAUGUGUCUCUCAAUCCUGUGGCUUUGGUGAGAGAGUGUGCAGAGAGCAAUGAUAGCAAAUAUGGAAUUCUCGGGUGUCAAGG`, the log2 enrichment was 0.781.
`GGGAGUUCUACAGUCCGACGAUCACCAUGCAGGUGGGCAUCUUUGGGAAGUGGGGCAAGGGGGGGAUAGGGAGGGGGGUAACACUUUGGGAACAGGUUGUCCCAGGUCGUUUCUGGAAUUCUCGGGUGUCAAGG` has a log2 enrichment of 0.299.
For `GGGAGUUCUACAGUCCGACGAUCUGGGAGGUGGAUUUUGUUUAUUUUUUUAGCUCAUUUCCAGGGGUGGGAAUUUUUUUUUAAUAUGUAUCAUGAAUAAAGUUGUUUUUGAAAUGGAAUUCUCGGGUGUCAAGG`, the log2 enrichment was -0.359.
For `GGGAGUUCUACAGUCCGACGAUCAAGUCCUGUGCUACACAUCGUAUGUACCGAAUCGGCCCCGGGGCCCCGGGCCCCGGGAAAGUAUUAUGUUACGCCGUUCGGAUCUGCACUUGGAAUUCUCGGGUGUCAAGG`, the log2 enrichment was -1.61.
`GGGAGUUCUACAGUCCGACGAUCUGUGAGCUGACUUUUUGGAUCAACUUUACUUUUCCCUUCUUUUUAGGCAAUUGAAGAUGAAGGUGGUAAUCCUGACGAAAUUGAAAUUACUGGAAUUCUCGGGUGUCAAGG` has a log2 enrichment of 0.425.
For `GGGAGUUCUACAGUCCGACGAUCAAGUCCUGUGCUACACAUCGUAUGUACCGAAUCGGAAAAAGGAAAAAGGAAAAAGGGAAAGUAUUAUGUUACGCCGUUCGGAUCUGCACUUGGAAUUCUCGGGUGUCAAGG`, the log2 enrichment was -0.343.
With `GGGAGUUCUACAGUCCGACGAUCUCAAGUCCUGUGCUACACAUCGUAUGUACCGAAUCGGUUUGGUUUGGUUUUUGGAAAGUAUUAUGUUACGCCGUUCGGAUCUGCACUUCCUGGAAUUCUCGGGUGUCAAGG` the log2 enrichment was -0.234.

Set 3
Target: CCNB3, cyclin fold, Cln2 fusion (human)
Technique: yeast growth competition, sequencing
Sample: yeast
Setting: strong parent motif
Relative to: not given
Reading: higher = stronger binding
Starting sequence: E2F1 docking peptide (human); PPVKRRLDFETDH; partner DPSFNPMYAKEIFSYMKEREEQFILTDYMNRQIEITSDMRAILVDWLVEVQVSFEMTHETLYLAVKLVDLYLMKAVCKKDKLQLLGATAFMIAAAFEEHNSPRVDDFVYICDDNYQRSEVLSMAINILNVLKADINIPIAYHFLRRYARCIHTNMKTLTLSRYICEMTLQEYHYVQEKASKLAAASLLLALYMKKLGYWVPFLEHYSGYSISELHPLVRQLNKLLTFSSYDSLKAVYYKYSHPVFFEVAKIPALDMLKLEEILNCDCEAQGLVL
`PPAKRRLDFETDH [V3A]` — result for “normalised enrichment score”: 1.58.
`PPVKRRQDFETDH [L7Q]` — result for “normalised enrichment score”: 0.245.
For `PPVKRPLDFETDH [R6P]`, “normalised enrichment score” read -0.166.
`PPVVRRLDFETDH [K4V]`: “normalised enrichment score” 2.15.
`PPVKRRLDFEYDH [T11Y]`: “normalised enrichment score” 2.26.
`PPVYRRLDFETDH [K4Y]`: “normalised enrichment score” 0.216.
Under “normalised enrichment score”, `PNVKRRLDFETDH [P2N]` is recorded as 2.5.
`PPVARRLDFETDH [K4A]` — result for “normalised enrichment score”: 2.08.
Under “normalised enrichment score”, `PPVKRRLDFCTDH [E10C]` is recorded as 2.2.
For `PPVKRRLDEETDH [F9E]`, “normalised enrichment score” read 0.328.
`PMVKRRLDFETDH [P2M]` — result for “normalised enrichment score”: 1.48.
For `PPVKRRLLFETDH [D8L]`, “normalised enrichment score” read 2.54.
`PSVKRRLDFETDH [P2S]` — result for “normalised enrichment score”: 2.48.
For `PPVIRRLDFETDH [K4I]`, “normalised enrichment score” read 1.12.
`PPVKRRLDFNTDH [E10N]` — result for “normalised enrichment score”: 3.23.
`PPVKRALDFETDH [R6A]`: “normalised enrichment score” 0.73.
`PPVKRRLDQETDH [F9Q]`: “normalised enrichment score” 0.549.
For `PPVKRRLDFESDH [T11S]`, “normalised enrichment score” read 2.81.
`PEVKRRLDFETDH [P2E]` — result for “normalised enrichment score”: 1.21.
`PPVFRRLDFETDH [K4F]`: “normalised enrichment score” 1.66.
`PPVKRRLRFETDH [D8R]` — result for “normalised enrichment score”: 1.41.
Under “normalised enrichment score”, `PPVDRRLDFETDH [K4D]` is recorded as 0.0659.
`PPVKKRLDFETDH [R5K]`: “normalised enrichment score” 0.874.

Set 4
Target: Interferon regulatory factor 5, full length, phosphomimetic (IRF5, Homo sapiens, UniProt Q13568-2, residues 1-514, S451D/S453D/S456D/S462D)
Technique: protein-binding microarray
Form: double-stranded DNA, one strand shown
Sample: in vitro
Tested at: 940 nM top
Setting: 60-bp whole probe
With: salmon DNA 0.4 mg/ml
Relative to: random background probes
Reading: higher = stronger binding
All sequences stand within: GCCTAGCAC … GTCTTGATTCGCTTGACGCTGCTG
`TTAGGTATCGGTATCGGTGAGTGCTAG`: “fitted relative affinity” 10.8 z-score.
`TCAGCTCACGCTTTGGAACTGTGCTAG` — result for “fitted relative affinity”: -0.447 z-score.
For `TCACATTTGATAAATCTTACTGTGCTA`, “fitted relative affinity” read 0.334 z-score.
Under “fitted relative affinity”, `GACGGTCTCGGTATCGGCACGTGCTAG` is recorded as 4.43 z-score.
Under “fitted relative affinity”, `GACGTTATCAGTATCGAGACGTGCTAG` is recorded as 1.66 z-score.
`TCAAACTTGTATTTGTCACTGTGCTAG`: “fitted relative affinity” -0.217 z-score.
`TTAGGTCTCGGTATCAGTTAGTGCTAG`: “fitted relative affinity” 5.22 z-score.
`TTTATTTATTTATTTATTTAGTGCTAG` — result for “fitted relative affinity”: 0.531 z-score.
For `GGCGAACTGGGGTTTCGAGACGTGCTA`, “fitted relative affinity” read 1.93 z-score.
For `TCACATTTATATCTTTGACTGTGCTAG`, “fitted relative affinity” read 0.811 z-score.
`TCACTCCTCTAGGTTCTCACTGTGCTA`: “fitted relative affinity” 0.648 z-score.
`TCACCTCTAGGTCTTCTACTGTGCTAG`: “fitted relative affinity” 0.288 z-score.
`GACGATCTCAGTTTCGAAACGTGCTAG`: “fitted relative affinity” 4.94 z-score.
Under “fitted relative affinity”, `ACTGATCACCGATTTCCTTCAGTGCTA` is recorded as 0.208 z-score.
`GACGGTTTCGGTATCGTGACGTGCTAG` — result for “fitted relative affinity”: 12.2 z-score.
`TTAGATATAGGGTTTCGATTAGTGCTA`: “fitted relative affinity” 3.69 z-score.
`TTAGGCCTCCTTCTCCTTTAGTGCTAG` — result for “fitted relative affinity”: 0.238 z-score.
`GACGTTATCGGTATCGGGACGTGCTAG`: “fitted relative affinity” 1.81 z-score.
For `TCACTGCTCCTCTTTTTTACTGTGCTA`, “fitted relative affinity” read 1.12 z-score.

Other studies, line by line
`PhoQ, residues 284 288 289 292 302 303 TSTLRA` has a fold induction of 4.46 (PhoP, residues 12 14 15 18 19 TQCLL (Escherichia coli, UniProt P23836); Sort-seq, refers to: YFP reporter; E. coli; PhoQ-PhoP variant library, with: 10 µM Mg2+; relative to: high Mg2+ state, higher = stronger signaling).

Excerpt of the above (set 1):
`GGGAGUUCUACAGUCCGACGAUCCCAAGUCUCUGCUGGUUACGGAGCUAUACGGUACUGCAGGAGUUCUACAUACCUGCUGCGCAGAGACCAGCCCCGUGGACAGAGCUGGCAUGAUGGUUGCUACAGUGCUCUGGAAUUCUCGGGUGCCAA` — result for “RBNS enrichment (R)”: 4.4.
Under “RBNS enrichment (R)”, `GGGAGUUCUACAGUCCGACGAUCUACAGUCAUAAAGCCACCUAGAGCGAUUUGUUGUUGAGCAACGCCGCCCCUUCCCUCCAGGAUCAGAAGCAGCACCCACCCUUGCCAUGAUAAACAUUCCAUCCCCUGCUUGGAAUUCUCGGGUGCCAA` is recorded as 0.544.
Under “RBNS enrichment (R)”, `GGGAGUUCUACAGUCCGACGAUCUGGCAGUGAAAAAUAUGUUGAGUGUUCAUUUUAGUGACUGUAAUUAAUAUCUUGCUGGAUUAAUGUUUUGUACAAUUACUAAAUUGUAUACAUUUUGUUAUAGAAUACUUUGGAAUUCUCGGGUGCCAA` is recorded as 0.454.
Under “RBNS enrichment (R)”, `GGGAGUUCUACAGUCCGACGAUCCACACUGUCUCCUGCUGGCAUUCACCCCACUCAUGCUGGAAAGGAAGAUCCAGAUCGUACAAAAAUUAGAAAAAGAAAGAAUAAGAAGGGUCUGGUCCCAGUUCUGACUCUGGAAUUCUCGGGUGCCAA` is recorded as 0.902.
`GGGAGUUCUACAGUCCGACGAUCGCUUGGCCAUUUAUCUAAGGAAGAUGAGCCAAAAUUAUGACAUCUAAAAUAAUCGUCAGUCUUAAGAGUAAAGACAGCGAAACUGCACACUUAUAAGUUCUUUUCAGCUUUGGAAUUCUCGGGUGCCAA`: “RBNS enrichment (R)” 0.301.
`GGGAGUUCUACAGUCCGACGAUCACAACAGCUUUGAUGAGUUCCUAUUAAGGUCGUAUUGUGUAUUGUGCCAAAUUUUCCACCCAGUAUAAAUUUAGUAACCCGCUAUGAGCAUAUGUAGGAUAUUCAAUUUGUGGAAUUCUCGGGUGCCAA` — result for “RBNS enrichment (R)”: 0.398.
